Results of several laboratories.
Numbered parts are unrelated; each lists some results of a single study.
Sequence of UniProt Q15759 (whole entry, looked up): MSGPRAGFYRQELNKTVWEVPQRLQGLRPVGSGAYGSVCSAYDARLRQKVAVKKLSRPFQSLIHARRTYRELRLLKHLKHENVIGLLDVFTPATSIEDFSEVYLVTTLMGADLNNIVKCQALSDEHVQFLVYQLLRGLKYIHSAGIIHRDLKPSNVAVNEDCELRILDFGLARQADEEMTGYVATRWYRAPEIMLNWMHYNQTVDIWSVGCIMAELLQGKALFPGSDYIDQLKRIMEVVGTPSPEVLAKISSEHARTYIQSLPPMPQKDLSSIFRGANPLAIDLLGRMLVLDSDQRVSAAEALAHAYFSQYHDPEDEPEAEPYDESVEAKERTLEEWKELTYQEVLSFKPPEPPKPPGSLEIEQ
Sequence of UniProt P31751 (whole entry, looked up): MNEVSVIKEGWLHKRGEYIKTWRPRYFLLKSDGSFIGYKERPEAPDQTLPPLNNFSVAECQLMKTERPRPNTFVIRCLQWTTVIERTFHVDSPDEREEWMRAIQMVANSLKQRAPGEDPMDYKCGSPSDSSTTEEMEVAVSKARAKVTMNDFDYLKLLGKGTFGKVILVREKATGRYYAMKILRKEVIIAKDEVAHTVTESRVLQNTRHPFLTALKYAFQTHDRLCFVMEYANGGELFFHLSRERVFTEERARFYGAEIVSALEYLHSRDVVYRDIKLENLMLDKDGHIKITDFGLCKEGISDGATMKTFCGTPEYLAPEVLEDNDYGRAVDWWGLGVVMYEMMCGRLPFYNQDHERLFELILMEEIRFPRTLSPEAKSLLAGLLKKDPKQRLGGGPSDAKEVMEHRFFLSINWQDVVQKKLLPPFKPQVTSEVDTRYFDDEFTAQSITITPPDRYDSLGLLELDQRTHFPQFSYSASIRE
Sequence of UniProt Q8N4C8 (whole entry, looked up): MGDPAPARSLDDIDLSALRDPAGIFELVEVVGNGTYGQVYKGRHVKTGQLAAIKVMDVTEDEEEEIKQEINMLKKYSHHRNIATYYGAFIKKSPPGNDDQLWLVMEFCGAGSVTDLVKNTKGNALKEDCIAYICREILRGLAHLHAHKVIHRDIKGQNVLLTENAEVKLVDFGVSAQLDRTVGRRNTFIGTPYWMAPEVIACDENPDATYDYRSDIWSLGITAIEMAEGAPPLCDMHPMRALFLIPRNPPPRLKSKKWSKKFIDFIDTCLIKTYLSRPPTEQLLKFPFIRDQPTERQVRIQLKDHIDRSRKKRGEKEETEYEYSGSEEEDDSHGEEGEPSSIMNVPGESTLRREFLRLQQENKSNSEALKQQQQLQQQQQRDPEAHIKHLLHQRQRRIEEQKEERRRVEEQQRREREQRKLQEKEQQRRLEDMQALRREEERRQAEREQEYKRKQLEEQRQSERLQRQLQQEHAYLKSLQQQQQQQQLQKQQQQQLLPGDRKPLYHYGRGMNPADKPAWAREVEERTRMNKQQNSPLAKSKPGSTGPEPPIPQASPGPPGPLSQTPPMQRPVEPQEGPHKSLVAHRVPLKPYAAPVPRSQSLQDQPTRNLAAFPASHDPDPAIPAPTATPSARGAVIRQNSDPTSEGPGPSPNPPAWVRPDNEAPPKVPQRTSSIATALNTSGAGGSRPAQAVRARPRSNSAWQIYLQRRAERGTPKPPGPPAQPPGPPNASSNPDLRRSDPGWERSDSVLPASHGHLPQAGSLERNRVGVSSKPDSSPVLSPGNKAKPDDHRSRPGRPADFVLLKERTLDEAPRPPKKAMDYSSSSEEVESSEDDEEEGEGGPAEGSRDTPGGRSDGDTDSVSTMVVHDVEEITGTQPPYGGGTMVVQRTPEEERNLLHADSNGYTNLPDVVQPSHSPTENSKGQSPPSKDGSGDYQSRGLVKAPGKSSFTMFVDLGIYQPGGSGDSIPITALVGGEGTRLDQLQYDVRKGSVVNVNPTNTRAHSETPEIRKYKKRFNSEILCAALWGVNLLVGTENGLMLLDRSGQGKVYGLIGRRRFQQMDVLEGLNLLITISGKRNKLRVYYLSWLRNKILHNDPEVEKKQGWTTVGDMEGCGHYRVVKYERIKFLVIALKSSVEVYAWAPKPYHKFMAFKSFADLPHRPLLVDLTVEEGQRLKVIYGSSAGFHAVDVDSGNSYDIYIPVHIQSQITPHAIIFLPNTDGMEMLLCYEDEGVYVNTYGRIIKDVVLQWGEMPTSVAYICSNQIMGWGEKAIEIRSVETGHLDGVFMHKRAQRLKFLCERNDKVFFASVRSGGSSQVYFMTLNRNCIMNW
Sequence of UniProt O75460 (whole entry, looked up): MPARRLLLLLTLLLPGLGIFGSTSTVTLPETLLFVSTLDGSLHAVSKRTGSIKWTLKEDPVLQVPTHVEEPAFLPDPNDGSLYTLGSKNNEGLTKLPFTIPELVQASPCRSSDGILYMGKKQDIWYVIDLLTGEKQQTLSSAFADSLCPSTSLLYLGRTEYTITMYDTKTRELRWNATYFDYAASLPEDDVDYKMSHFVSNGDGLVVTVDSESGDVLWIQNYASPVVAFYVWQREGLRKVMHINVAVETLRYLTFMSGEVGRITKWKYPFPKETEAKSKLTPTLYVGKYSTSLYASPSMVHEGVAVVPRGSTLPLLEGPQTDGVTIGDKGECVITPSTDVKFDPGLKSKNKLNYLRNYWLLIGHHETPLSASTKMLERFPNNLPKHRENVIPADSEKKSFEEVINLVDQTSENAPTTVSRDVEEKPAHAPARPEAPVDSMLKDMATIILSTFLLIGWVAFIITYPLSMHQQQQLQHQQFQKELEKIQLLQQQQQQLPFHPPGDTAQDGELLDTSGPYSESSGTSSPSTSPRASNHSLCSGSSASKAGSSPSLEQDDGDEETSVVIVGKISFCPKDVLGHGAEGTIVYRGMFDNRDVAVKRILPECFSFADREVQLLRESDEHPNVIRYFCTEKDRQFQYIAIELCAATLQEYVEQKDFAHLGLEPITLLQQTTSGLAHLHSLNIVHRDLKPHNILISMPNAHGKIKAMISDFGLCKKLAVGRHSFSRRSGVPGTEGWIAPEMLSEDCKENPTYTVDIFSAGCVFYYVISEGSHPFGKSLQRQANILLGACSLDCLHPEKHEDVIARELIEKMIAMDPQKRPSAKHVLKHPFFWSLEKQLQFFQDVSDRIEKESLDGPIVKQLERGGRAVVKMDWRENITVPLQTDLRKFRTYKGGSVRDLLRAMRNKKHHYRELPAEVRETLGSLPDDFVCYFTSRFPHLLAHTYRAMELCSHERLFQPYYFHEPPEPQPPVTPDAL
Sequence of UniProt P28482 (whole entry, looked up): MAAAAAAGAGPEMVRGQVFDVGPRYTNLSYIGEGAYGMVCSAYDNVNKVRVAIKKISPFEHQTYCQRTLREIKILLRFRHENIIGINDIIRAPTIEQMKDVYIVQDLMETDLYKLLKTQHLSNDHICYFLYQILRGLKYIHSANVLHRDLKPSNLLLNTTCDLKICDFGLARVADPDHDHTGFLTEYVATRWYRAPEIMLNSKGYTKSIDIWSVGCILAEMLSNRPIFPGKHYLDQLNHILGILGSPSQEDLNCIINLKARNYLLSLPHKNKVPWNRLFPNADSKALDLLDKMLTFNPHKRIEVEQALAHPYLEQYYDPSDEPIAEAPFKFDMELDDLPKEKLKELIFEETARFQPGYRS
Sequence of UniProt Q56UN5 (whole entry, looked up): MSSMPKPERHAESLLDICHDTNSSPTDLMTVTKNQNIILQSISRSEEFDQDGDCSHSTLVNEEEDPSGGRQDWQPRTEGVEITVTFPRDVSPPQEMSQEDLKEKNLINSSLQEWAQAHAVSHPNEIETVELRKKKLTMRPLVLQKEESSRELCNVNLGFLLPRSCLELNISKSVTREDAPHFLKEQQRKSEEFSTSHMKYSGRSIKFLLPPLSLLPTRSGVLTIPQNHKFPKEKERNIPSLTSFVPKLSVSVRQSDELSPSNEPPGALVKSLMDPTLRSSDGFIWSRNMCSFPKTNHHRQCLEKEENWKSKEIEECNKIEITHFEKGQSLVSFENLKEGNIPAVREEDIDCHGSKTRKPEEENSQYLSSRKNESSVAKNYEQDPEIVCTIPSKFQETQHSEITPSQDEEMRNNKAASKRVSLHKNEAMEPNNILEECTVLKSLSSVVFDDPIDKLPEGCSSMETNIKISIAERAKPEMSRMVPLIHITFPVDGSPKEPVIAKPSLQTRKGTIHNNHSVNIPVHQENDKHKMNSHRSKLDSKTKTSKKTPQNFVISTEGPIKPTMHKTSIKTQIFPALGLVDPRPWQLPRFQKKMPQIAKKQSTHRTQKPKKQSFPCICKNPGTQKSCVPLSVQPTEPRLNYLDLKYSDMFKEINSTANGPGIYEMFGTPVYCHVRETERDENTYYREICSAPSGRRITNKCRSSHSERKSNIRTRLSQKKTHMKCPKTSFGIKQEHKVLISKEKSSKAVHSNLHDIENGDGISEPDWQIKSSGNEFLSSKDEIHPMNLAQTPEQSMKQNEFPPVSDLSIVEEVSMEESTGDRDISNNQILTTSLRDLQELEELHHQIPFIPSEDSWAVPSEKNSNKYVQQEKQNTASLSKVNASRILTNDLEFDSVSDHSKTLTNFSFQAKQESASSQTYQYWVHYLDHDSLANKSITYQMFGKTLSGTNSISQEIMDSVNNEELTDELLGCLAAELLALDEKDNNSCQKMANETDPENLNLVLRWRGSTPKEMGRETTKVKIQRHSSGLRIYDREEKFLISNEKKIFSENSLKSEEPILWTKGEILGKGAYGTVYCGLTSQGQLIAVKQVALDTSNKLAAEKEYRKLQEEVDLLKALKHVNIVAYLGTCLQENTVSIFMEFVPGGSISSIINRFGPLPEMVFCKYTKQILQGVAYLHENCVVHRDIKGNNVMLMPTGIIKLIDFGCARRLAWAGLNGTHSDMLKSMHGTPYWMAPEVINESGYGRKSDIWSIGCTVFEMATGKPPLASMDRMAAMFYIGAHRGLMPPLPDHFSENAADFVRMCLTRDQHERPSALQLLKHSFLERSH

Sample 1
Cell line: HaCaT
Tested at: 100 µM
Time: 18 h
SMILES	viability [%]
NC(=O)N1c2ccccc2CC(=O)c2ccccc21	63.9
C=CC(=O)Nc1cccc(Nc2nc(Nc3ccc(N4CCN(C(C)=O)CC4)cc3OC)ncc2C(F)(F)F)c1	20
O=C(/C=C/c1ccc(O)c2c1[C@H](C(=O)O[C@H](Cc1ccc(O)c(O)c1)C(=O)O)[C@@H](c1ccc(O)c(O)c1)O2)O[C@H](Cc1ccc(O)c(O)c1)C(=O)O	149
Cn1c(=O)cc(N2CCC[C@@H](N)C2)n(Cc2ccccc2C#N)c1=O	108
COCCOC(=O)C1=C(C)NC(C)=C(C(=O)OC/C=C/c2ccccc2)C1c1cccc([N+](=O)[O-])c1 (stereo not drawn)	54.3
NC[C@@H]1O[C@H](O[C@H]2[C@@H](O)[C@H](O[C@@H]3[C@@H](O)[C@H](N)C[C@H](N)[C@H]3O[C@H]3O[C@H](CO)[C@@H](O)[C@H](O)[C@H]3N)O[C@@H]2CO)[C@H](N)[C@@H](O)[C@@H]1O	111
CC(C)(C)NCC(O)c1cc(O)cc(O)c1 (stereo not drawn)	112

Sample 2
Host: mouse
Medium: microsomes or S9
Tested at: 2 µM
Time: 0.5 h
SMILES	remaining compound [%]
CC(C)(C)OC(=O)NC(CC(=O)N1CCCCCN1C(=O)c1cccc(C#N)c1)Cc1ccccc1F (stereo not drawn)	35.6
CC1CCC(NS(=O)(=O)CC(=O)N(C)Cc2ccccn2)CC1 (stereo not drawn)	14.7
O=C(N[C@H](c1ccccc1)[C@@H](O)c1ccccc1)c1ccc(F)cc1	76.6
Cc1ccn(CCC(=O)N(Cc2ccncc2)Cc2cccc(OCCc3ccc(F)cc3)c2)n1	2.41
COc1cc(=O)[nH]cc1C(=O)N1CCCC(c2cnn(C)c2)C1 (stereo not drawn)	69.8
O=C(c1c(-c2ccccc2)cc(=O)n2c1CCC2)N1CCCC1	94.2
Cc1oc(C)c(C(=O)Nc2nnc(C)n2C)c1Br	46.5

Sample 3
Structure (SMILES): Cc1ccc(NC(=O)c2ccc(CN3CCN(C)CC3)cc2)cc1Nc1nccc(-c2cccnc2)n1
Observed: enzyme activity
Action: inhibitor
Tested at: 0.5 µM
Relative to: control
target	remaining activity
ROCK1 (Homo sapiens, UniProt Q13464)	100%
GRK4 (Homo sapiens, UniProt P32298)	105%
Myosin-IIIb (MYO3B, Homo sapiens, UniProt Q8WXR4)	85.7%
MAPK1 (Homo sapiens, UniProt P28482)	89.9%
MAPK11 (Homo sapiens, UniProt Q15759)	98%
Cyclin-dependent kinase 9, with cyclin K (CDK9, Homo sapiens, UniProt P50750)	103%
AKT2 (Homo sapiens, UniProt P31751)	112%
KDR (Homo sapiens, UniProt P35968)	94.2%
MAP2K1 (Homo sapiens, UniProt Q02750)	104%
MINK1 (Homo sapiens, UniProt Q8N4C8)	98.5%
MET (Homo sapiens, UniProt P08581)	110%
PNCK (Homo sapiens, UniProt Q6P2M8)	101%
MARK4 (Homo sapiens, UniProt Q96L34)	102%

Sample 4
SMILES: O=C1CCc2cc(Nc3cc(OC4CCOCC4)c([N+](=O)[O-])cc3Cl)ccc2N1
Observed: cell-free assay
Method: competition with immobilised ligand
Tested at: 1 µM
target	remaining binding
MAP3K19 (Homo sapiens, UniProt Q56UN5)	100%
CDC42BPB (Homo sapiens, UniProt Q9Y5S2)	90%
CDK11A (Homo sapiens, UniProt Q9UQ88)	100%
MAPK11 (Homo sapiens, UniProt Q15759)	88%
ERN1 (Homo sapiens, UniProt O75460)	99%
EGFR (Homo sapiens, UniProt P00533, del747-750/T751S)	100%
MYLK2 (Homo sapiens, UniProt Q9H1R3)	90%
MAP3K15 (Homo sapiens, UniProt Q6ZN16)	78%
MYLK4 (Homo sapiens, UniProt Q86YV6)	96%

A few entries again (sample 3):
target	remaining activity
MAPK1 (Homo sapiens, UniProt P28482)	89.9%
MAPK11 (Homo sapiens, UniProt Q15759)	98%
